Measurements gathered from unrelated publications.
Values joined by “and” are separate records of one study, mostly repeats; a detail may differ. ± gives the spread as reported.
B1: acetylcholinesterase; chain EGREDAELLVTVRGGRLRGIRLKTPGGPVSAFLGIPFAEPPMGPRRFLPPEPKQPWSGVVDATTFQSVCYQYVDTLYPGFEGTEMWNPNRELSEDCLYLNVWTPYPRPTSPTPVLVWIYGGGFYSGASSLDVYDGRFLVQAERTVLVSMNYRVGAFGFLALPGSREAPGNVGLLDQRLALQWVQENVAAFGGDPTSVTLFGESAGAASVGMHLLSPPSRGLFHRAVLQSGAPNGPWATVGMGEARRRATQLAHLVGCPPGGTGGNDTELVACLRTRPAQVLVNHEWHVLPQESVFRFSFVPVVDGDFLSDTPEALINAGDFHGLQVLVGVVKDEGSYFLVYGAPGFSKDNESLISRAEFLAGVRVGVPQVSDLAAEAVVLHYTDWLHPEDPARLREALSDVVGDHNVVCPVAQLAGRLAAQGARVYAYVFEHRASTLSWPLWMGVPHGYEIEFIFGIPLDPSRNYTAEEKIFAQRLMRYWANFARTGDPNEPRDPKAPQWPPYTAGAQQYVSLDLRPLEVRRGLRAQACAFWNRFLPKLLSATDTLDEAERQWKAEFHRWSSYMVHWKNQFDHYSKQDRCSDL

Substance	target or system	test	system	setting	scale	quantity	result
CO/N=C(\C(=O)N[C@@H]1C(=O)N2C(C(=O)O)=CCS[C@H]12)c1csc(N)n1	Neisseria gonorrhoeae PBP2 H041			1 h, pH 8.0, room temperature, together with: Bocillin-FL competitor		acylation rate constant k2/Ks	1000 ± 210 M⁻¹ s⁻¹
O=[N+]([O-])c1ccc(O)c2ncccc12	SIRT1, human	immunoblot, item: acetyl-p53	HUVEC		biphasic response	concentration of maximal inhibition	5 µM
CN[C@H](CC(C)C)C(=O)N[C@H]1C(=O)N[C@@H](CC(N)=O)C(=O)N[C@H]2C(=O)N[C@H]3C(=O)N[C@H](C(=O)N[C@H](C(=O)O)c4cc(O)cc(O)c4-c4cc3ccc4O)[C@H](O)c3ccc(c(Cl)c3)Oc3cc2cc(c3O[C@@H]2O[C@H](CO)[C@@H](O)[C@H](O)[C@H]2O[C@H]2C[C@](C)(N)[C@H](O)[C@H](C)O2)Oc2ccc(cc2Cl)[C@H]1O	D-Ala peptide	cantilever array	phosphate buffer	pH 7.4, 25 °C		detection limit	10 nM
NC(=O)c1cc[n+](CC2=C(C(=O)O)N3C(=O)[C@@H](NC(=O)[C@@H](c4ccccc4)S(=O)(=O)[O-])[C@H]3SC2)cc1	Neisseria gonorrhoeae PBP2 H041			1 h, pH 8.0, room temperature, together with: Bocillin-FL competitor		acylation rate constant k2/Ks	0.8 ± 0.1 M⁻¹ s⁻¹
KFNHWFG	adeno-associated virus 2	capsid binding, bind-and-elute chromatography	peptide	peptide ligand resin, MgCl2 elution		recovery yield	45%
pepstatin A	Candida albicans Bar1 protease	inhibitor		100 µM, 90 min, pH 6.5, 37 °C		inhibition	no inhibition
O=C(c1ccc(F)cc1)N1CCC[C@H](c2nc(-c3ccc(F)cc3)no2)C1	mGluR5	calcium fluorescence, positive allosteric modulator	mGluR5-expressing cells	together with: glutamate EC20	baseline: maximal glutamate response	Emax	107 ± 5%
C=CC(=O)OCCO	cysteine peptide Ac-RFAACAA-COOH	DPRA RapidFire-MS/MS		24 h, pH 7.5, together with: 5.0 µM cysteine peptide		maximal peptide depletion	-132%
Clc1ccccc1C(c1ccccc1)(c1ccccc1)n1cccn1	mouse BK channel	whole-cell patch clamp	mouse parotid acinar cells	1 µM, +50 mV, together with: DCEBIO 10 µM	baseline: control	BK current	95%
CC(C)(O/N=C(\C(=O)N[C@@H]1C(=O)N2C(C(=O)[O-])=C(C[n+]3ccccc3)CS[C@H]12)c1csc(N)n1)C(=O)O	Neisseria gonorrhoeae PBP2 H041			1 h, pH 8.0, room temperature, together with: Bocillin-FL competitor		acylation rate constant k2/Ks	780 ± 150 M⁻¹ s⁻¹
O=c1c2ccccc2[se]n1-c1ccccc1	trypanothione synthetase (Trypanosoma brucei)	enzyme activity, inhibitor		5 µM, 1 h preincubation, time-dependent		inhibition	0% and -0.7%
Oc1ccc(Cl)cc1-c1cc(Cl)c(Cl)c(Cl)c1Cl	aequorin, Aequorea victoria	bioluminescence, inhibitor		1.0×100 µM, together with: coelenterazine	baseline: no inhibitor	inhibition	91%
O=C1c2cc(COc3ccccc3)nn2CCN1c1ccc(F)cn1	mGlu1, 2, 4, 6, 7, 8 receptors			selectivity screen		EC50	> 10000 nM
Brc1ccccc1-c1ccccc1Br	aequorin, Aequorea victoria	bioluminescence, inhibitor		1.0×100 µM, together with: coelenterazine	baseline: no inhibitor	inhibition	43%
CCC1=C[C@@H]2CN3CCc4c([nH]c5ccccc45)[C@@](C(=O)OC)(C2)[C@@H]13	GABA-A receptor α1β2(M286C)γ2S		Xenopus oocytes	100 µM, together with: GABA EC5	baseline: GABA EC5 current	maximal potentiation	264 ± 28%
B1 (acetylcholinesterase)	amyloid oligomers	ELISA, LOC capture	A549 conditioned medium		baseline: mouse IgG	complex formation	binds
CNC[C@H](N)C(=O)O	ASCT2	anion current, substrate	HEK293 transfected	pH 7.40, 0 mV		Km	1400 ± 320 µM

Substance	target or system	test	system	setting	scale	quantity	result
FWWAAFFKG	adeno-associated virus 2	capsid binding, bind-and-elute chromatography	peptide	peptide ligand resin, MgCl2 elution		recovery yield	44.8%
O=C(O[C@@H]1Cc2c(O)cc(O)cc2O[C@@H]1c1cc(O)c(O)c(O)c1)c1cc(O)c(O)c(O)c1	alpha-synuclein	circular dichroism		2 molar equivalents, 4 h, pH 6.6, 37 °C, together with: HFIP 2 vol-%	baseline: uninhibited control	β-structure formation	38 ± 11%
O=C(O)c1cc2ccccc2c(Cc2c(O)c(C(=O)O)cc3ccccc23)c1O	PCSK9 (mouse)	NGS, item: PCSK9 locus	mouse, hydrodynamic injection, liver	80 or 160 mg/kg, SpyCas9 genome editing, after three treatment cycles		indel frequency	≤ 0.5%
C=C(C)[C@H]1Cc2c(ccc3c2O[C@@H]2COc4cc(OC)c(OC)cc4[C@@H]2C3=O)O1	complex I rat	reverse electron transport	isolated mitochondria	together with: succinate 5 mM, glutamate 0.5 mM		highest ineffective concentration	0.02 µM
C[C@H](NC(=O)Cc1cc(F)cc(F)c1)C(=O)N[C@H]1N=C(c2ccccc2)c2ccccc2N(C)C1=O	γ-secretase	inhibitor, microdialysis	J20 hAPP transgenic mice, 24 months, hippocampal interstitial fluid	intraperitoneal, 3 mg/kg, first 3 h	baseline: pre-injection level	ISF Aβ40 reduction	~60%
CO/N=C(\C(=O)N[C@@H]1C(=O)N2C(C(=O)O)=C(COC(C)=O)CS[C@H]12)c1csc(N)n1	Neisseria gonorrhoeae PBP2 H041			1 h, pH 8.0, room temperature, together with: Bocillin-FL competitor		acylation rate constant k2/Ks	880 ± 120 M⁻¹ s⁻¹
O=C/C=C/c1ccccc1	cysteine peptide Ac-RFAACAA-COOH	DPRA RapidFire-MS/MS		24 h, pH 7.5, together with: 5.0 µM cysteine peptide		maximal peptide depletion	-124%
CC[C@H](C)[C@H](NC(=O)[C@H](Cc1ccc(O)cc1)NC(=O)[C@@H](NC(=O)[C@@H]1CCCN1C(=O)[C@H](CCCNC(=N)N)NC(=O)[C@H](CC(N)=O)NC(=O)[C@H](CC(N)=O)NC(=O)[C@H](CCCN)N=C(N(C)C)N(C)C)C(C)C)C(=O)N1CCC[C@H]1C(=O)N[C@@H](CCCNC(=N)N)C(=O)N1CCC[C@H]1C(=O)N[C@@H](CCCNC(=N)N)C(=O)N1CCC[C@H]1C(=O)N1CCC[C@H]1C(=O)N[C@@H](Cc1c[nH]cn1)C(=O)N1CCC[C@H]1C(=O)N[C@@H](CCCNC(=N)N)C(=O)N[C@@H](CC(C)C)C(=O)O	Escherichia coli BW25113 70S ribosome	fluorescence polarization		90 min		Kd	328 ± 72 nM
COCC1=C(C(=O)O)N2C(=O)[C@@H](NC(=O)/C(=N\OC)c3csc(N)n3)[C@H]2SC1	Neisseria gonorrhoeae PBP2 H041			1 h, pH 8.0, room temperature, together with: Bocillin-FL competitor		acylation rate constant k2/Ks	590 ± 90 M⁻¹ s⁻¹
O=C(NCNC(=O)NC1C(=O)NC(=O)N1CO)NC1C(=O)NC(=O)N1CO (stereo not drawn)	cysteine peptide Ac-RFAACAA-COOH	DPRA RapidFire-MS/MS		24 h, pH 7.5, together with: 5.0 µM cysteine peptide		peptide depletion	inactive
CO/N=C(\C(=O)N[C@@H]1C(=O)N2C(C(=O)O)=C(CSc3nc(=O)c(=O)[nH]n3C)CS[C@H]12)c1csc(N)n1	Neisseria gonorrhoeae PBP2 H041			1 h, pH 8.0, room temperature, together with: Bocillin-FL competitor		acylation rate constant k2/Ks	1710 ± 320 M⁻¹ s⁻¹
O=[N+]([O-])c1ccc(Cl)c([N+](=O)[O-])c1	cysteine peptide Ac-RFAACAA-COOH	DPRA RapidFire-MS/MS		24 h, pH 7.5, together with: 5.0 µM cysteine peptide		maximal peptide depletion	-199%
CC(C)[C@@H]1NC(=O)c2coc(n2)-c2coc(n2)-c2coc(n2)C/C=C/c2coc(n2)-c2coc(n2)-c2coc1n2	salmon testes duplex DNA	UV melting		15 µM, pH 7.5, together with: 150 mM K+	baseline: DNA without compound	melting temperature shift	0.1 °C
C=C(C)C(=O)OCCOC(=O)C(=C)C	cysteine peptide Ac-RFAACAA-COOH	RapidFire MS DPRA		lowest to highest concentration		peptide depletion span	-60.3%
CN[C@@](C)(C[18F])C(=O)O	A549 tumour model		host not given, liver	15 min, tumour-bearing		tracer uptake	6.9 %ID/g
CC[C@H](C)[C@H](NC(=O)[C@H](CCCNC(=N)N)NC(=O)[C@H](C)NC(=O)[C@H](Cc1c[nH]c2ccccc12)NC(=O)[C@H](CO)NC(=O)CNC(=O)[C@H](CC(C)C)NC(=O)[C@H](Cc1ccccc1)NC(=O)[C@H](CCCNC(=N)N)NC(=O)[C@H](CCCNC(=N)N)NC(=O)[C@H](Cc1ccccc1)NC(=O)CNC(C)=O)C(=O)N[C@@H](Cc1ccc(O)cc1)C(=O)N[C@@H](CCCNC(=N)N)C(=O)N[C@@H](C)C(=O)N[C@@H](Cc1ccccc1)C(=O)N[C@H](C(=O)NCC(N)=O)C(C)C	LPS	surface plasmon resonance	Escherichia coli, 026:B6	25 °C		dissociation rate constant	0.003 s⁻¹

Some of these lines once more:
Substance	target or system	test	system	setting	scale	quantity	result
CN[C@H](CC(C)C)C(=O)N[C@H]1C(=O)N[C@@H](CC(N)=O)C(=O)N[C@H]2C(=O)N[C@H]3C(=O)N[C@H](C(=O)N[C@H](C(=O)O)c4cc(O)cc(O)c4-c4cc3ccc4O)[C@H](O)c3ccc(c(Cl)c3)Oc3cc2cc(c3O[C@@H]2O[C@H](CO)[C@@H](O)[C@H](O)[C@H]2O[C@H]2C[C@](C)(N)[C@H](O)[C@H](C)O2)Oc2ccc(cc2Cl)[C@H]1O	D-Ala peptide	cantilever array	phosphate buffer	pH 7.4, 25 °C		detection limit	10 nM
O=C(NCNC(=O)NC1C(=O)NC(=O)N1CO)NC1C(=O)NC(=O)N1CO (stereo not drawn)	cysteine peptide Ac-RFAACAA-COOH	DPRA RapidFire-MS/MS		24 h, pH 7.5, together with: 5.0 µM cysteine peptide		peptide depletion	inactive
CC[C@H](C)[C@H](NC(=O)[C@H](CCCNC(=N)N)NC(=O)[C@H](C)NC(=O)[C@H](Cc1c[nH]c2ccccc12)NC(=O)[C@H](CO)NC(=O)CNC(=O)[C@H](CC(C)C)NC(=O)[C@H](Cc1ccccc1)NC(=O)[C@H](CCCNC(=N)N)NC(=O)[C@H](CCCNC(=N)N)NC(=O)[C@H](Cc1ccccc1)NC(=O)CNC(C)=O)C(=O)N[C@@H](Cc1ccc(O)cc1)C(=O)N[C@@H](CCCNC(=N)N)C(=O)N[C@@H](C)C(=O)N[C@@H](Cc1ccccc1)C(=O)N[C@H](C(=O)NCC(N)=O)C(C)C	LPS	surface plasmon resonance	Escherichia coli, 026:B6	25 °C		dissociation rate constant	0.003 s⁻¹
